Published values collected from several papers.
Numbered parts are unrelated; each lists some results of a single study.

Study 1
Target: Centromere-binding protein 1, full length, His-tagged (CBF1, Saccharomyces cerevisiae, UniProt P17106, residues 1-351)
UniProt P17106, sequence (whole entry, looked up): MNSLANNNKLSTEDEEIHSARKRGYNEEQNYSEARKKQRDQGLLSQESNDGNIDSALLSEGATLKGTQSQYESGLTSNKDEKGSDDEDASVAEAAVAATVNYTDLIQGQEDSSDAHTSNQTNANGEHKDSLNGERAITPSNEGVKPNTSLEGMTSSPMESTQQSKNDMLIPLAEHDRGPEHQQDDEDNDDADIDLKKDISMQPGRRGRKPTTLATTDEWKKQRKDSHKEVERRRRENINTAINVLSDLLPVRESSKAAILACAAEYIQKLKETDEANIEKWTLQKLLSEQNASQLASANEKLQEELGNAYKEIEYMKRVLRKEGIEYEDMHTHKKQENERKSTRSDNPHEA
Method: competition protein-binding microarray
Form: double-stranded DNA, one strand shown
Sample: in vitro
Tested at: 2 µM
Setting: whole 60-bp probe, lowest competitor level
Added: Pho4 competitor, 0.05 µM
Direction: higher = stronger binding
All sequences stand within: … GTCTTGATTCGCTTGACGCTGCTG
Sequence | fluorescence intensity [a.u.]
CATACCCAACCTTGCTTCGTGGGTGAAGATATTTGT | 76
GTACTTGTTTCCGTTTCCGTGCCAGGCTAGATCCAT | 62.9
CCTCACCCTAGTGAGCATGTGCCCAGGGCTGGGTCA | 144
GTCTTGTCTCATTTTCACGTGTTATTCCCCACTTCA | 943
ATGCAATTTTTTCACCACGTGCTAATTCTCTTTGTT | 2770
CAGCAACGGACAGGCGTCGTGCGGACAAACTTGCTC | 62.1
CTAACGAAGGTTTTTCACGTGCGTTACAAGCCAAGT | 732
CGTCCTAGTGATTGCTACGTGGGTGCCATGAGGAAG | 91.1
AAATTACTAAGTTGGTGGGTGGGTGACGCCGTATGA | 70.7
TTGGTGAGCATTACCTACGTGTTGGGCACTACAACA | 75.3
GTCTTGTCTCATTGCTCGGTGGGTGTCCCCACTTCA | 92.6
TTCTAGGTATTGATGCAGGTGAGGAAAAGGAAAAAG | 91
CTTTCCCGATCTTGCCTCGTGGGTGTAGCACATTTG | 89.9
CGGGGTTAAGTTTGTCACCGTACTTGCTTGCAGCAG | 63.9
AAATTACTAAGTTGTCACGCTACTTACCCCGTATGA | 208
CGAGAATGTCCGGAACACATGTCAATATTTGCTCCT | 181
GCGGGCATCGCGTTCGTCGTGACGAATGACTTGAAA | 80.9
AAATTACTAAGTTGTCACGTGGGTGACGCCGTATGA | 6160
CTTCTGTAAATTTGGGATGTGGGTGGACGCGCCCCG | 80.6
CGTAAAAGAGAAAAGATCGTGCTTTCATCAAGCGCT | 68.9
CATACCCAACCTTGTCACTAGACTTAAGATATTTGT | 93
CGACTGAAAAACTCAAACGTGCTTTACCGCCAAGCA | 90.4
AGTCCCAATACCTCTCACGTTTTGGGGGAATAGTTC | 206
TTTTACTGCAGAAAGCACGTGGAGGATCTGCTTCAT | 1290
ACAGACCCCGAAGGAGCCGTGATGGACTTTACACCA | 60.1

Study 2
Target: RING finger protein unkempt homolog, zinc fingers 1-6, GST-SBP tag (UNK, Homo sapiens, UniProt Q9C0B0, residues 30-357)
UniProt Q9C0B0, sequence (30-357, looked up): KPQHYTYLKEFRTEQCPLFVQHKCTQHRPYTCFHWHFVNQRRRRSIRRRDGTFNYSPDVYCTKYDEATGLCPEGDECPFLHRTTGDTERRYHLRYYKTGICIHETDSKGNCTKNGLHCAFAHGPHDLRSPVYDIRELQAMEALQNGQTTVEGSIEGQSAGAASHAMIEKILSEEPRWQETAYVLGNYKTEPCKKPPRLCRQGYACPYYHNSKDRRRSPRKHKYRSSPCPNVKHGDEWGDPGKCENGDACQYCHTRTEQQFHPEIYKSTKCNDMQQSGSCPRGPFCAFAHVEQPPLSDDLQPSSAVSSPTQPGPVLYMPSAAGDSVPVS
Method: RNA Bind-n-Seq
Form: RNA
Sample: in vitro
Tested at: not given
Setting: RNA with constant flanks, human and mouse sites, ends assumed
Relative to: input RNA pool
Direction: higher = stronger binding
All sequences stand within: GGGAGUUCUACAGUCCGACGAUC … CAACAGAGGAUUGAGCAUCA
Sequence | bound/input enrichment
UUAUUUUUCCCCCCCUACAGUUUCCAUUUUUUUUUUAUACUUGCUUACUCCAGCCAUCUGCAGUACACCAGUUUCAGGUCUUUUGAGCUGUGUAGAGUUUCUGUGUGUACAGAUGUGUGC | 8.28 ratio
AACAUAAAUUGUAUUUCCUGUUUUAAUUCCAGGGGAAGUACUGUUUGGGAAAGCUAUUAUUAGGUAAAUGUUUUACAAAUUACUGUUUCUCACUUUCAGUCAUACCCUAAUGAUCCCAGC | 0.475 ratio
GGAGCAUUAAUUGCUUCUCUUAUCAACUGCUACAUCAGAGACAACGCCGCCGUAGACGGCAUUAGCUUACAUCUGCAGGACACCUGUCCGCUUCUGUAUAGCACAGACGAUGCAGUUUGU | 0.18 ratio
AGAACAAACAAAGGGCUGCAACUACGGCAUGGCAAUGACCAACGCGUGUUCCGUUUAGAGUUUGUCUCAAACCAAGAAUUCACCGAAAGUGAGUUUAUGAAGUGGAAAGAAGCGAUGUUC | 0.157 ratio
ACCCUCAAAGUGGCUGAUUUUGGUCUAAGUAAAGUUUGUUCAGCCUCUGGGCAGAACCCAGAAGAACCUGUCAGUGUAAACAAGUGUUUCCUUUCCACAGCAUGUGGAACAGAUUUUUAC | 0.137 ratio
GCACUUUUCCCCAAUUCAUGUUUGGUGGGGCCAUCCACACCCUCUCCUUGUCACAGAAUCUCCAUUUCUGCUCAGAUUCCCCCCAUCUCCAUUGCAUUCAUGUACUACCCUCAGUCUACA | 0.788 ratio
UGGAACUGGGGAGGGGGCUUCCUGUUGGAGCCAGGGCCAGGGGCUCCUUGGUGUAAUCUGUGUCGCCAGGUUCCCACCUCUCUCCUUUUCUAAAAGCCAAAGCCACUAUCUCCAAUAAAA | 0.17 ratio
GCUUAUAAAGCUGCUAGUGAUAUUGCAAUGACAGAACUUCCACCAACGCAUCCUAUUCGCUUAGGUCUUGCUCUCAAUUUUUCCGUAUUCUACUACGAAAUUCUUAAUUCCCCUGACCGU | 0.246 ratio
AAUUUUAACCAAGAAUCAGAAGGUAGAAAUUCAGGACCAUGGUUGUCUUCUUCACUUAGAAAUAGAUGCACACCUUUGUUCUCGAGAAGGAGGCGAGAGGGAAGGGAUGAGUCUUCAAGA | 3.18 ratio
GCACCCAGGUCCUAUAGAAUAGCACCCAGGCCAUAUAGGUUAGCACCUAGACCCCUGAUGUUAGCAUCUAGACGUUCUAUGAUGAUGUCCUAUGCUGCAGAACGUUCCAUGAUGUCAUCU | 0.395 ratio
CAACAGAGUCUAGGAUGGGUUCAUUACAUGAUUCAUGAGCCAGAACCGCAUAUUCUUCUCUUUAGACGACCUCUUCCAAAAGAACAACAAAAAUGAAGUGCAGCUGGGAUCAUCUAAUCU | 0.313 ratio

Study 3
Target: Histone acetyltransferase KAT6A, winged helix 1, GST fusion (KAT6A, Homo sapiens, UniProt Q92794, residues 1-85)
Method: protein binding microarray
Form: double-stranded DNA, one strand shown
Sample: in vitro
Tested at: not given
Setting: 8-mer, flanks averaged, mean of 2 arrays, mostly near background
Relative to: not given
Direction: higher = stronger binding
Residues (chain): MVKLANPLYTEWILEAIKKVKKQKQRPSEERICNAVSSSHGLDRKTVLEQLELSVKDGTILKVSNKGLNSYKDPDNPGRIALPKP
Sequence | E-score
ACTCCTTC | -0.244
CCCGTACC | 0.313
GGCATAAC | -0.0291
GCAAGTAC | -0.0972
ACGCTGGC | 0.133
CATCATGA | -0.223
AGATGACT | -0.124
CCATCACA | -0.16
AACTATCC | -0.0104
AATGGTAT | -0.106
CAGCCCAG | -0.217
GTACTTCA | 0.041
ACTTCCAT | -0.0823
AAAAGTAC | 0.0785
ACAGCATA | -0.0911
CGCCTTCA | 0.234
ACGAATAA | -0.204
CACGAAAA | -0.159
CACGGCCC | 0.33

Study 4
Target: Sal-like protein 4, full length isoform A (SALL4, Homo sapiens, UniProt Q9UJQ4, residues 1-1053)
UniProt Q9UJQ4, sequence (whole entry, looked up): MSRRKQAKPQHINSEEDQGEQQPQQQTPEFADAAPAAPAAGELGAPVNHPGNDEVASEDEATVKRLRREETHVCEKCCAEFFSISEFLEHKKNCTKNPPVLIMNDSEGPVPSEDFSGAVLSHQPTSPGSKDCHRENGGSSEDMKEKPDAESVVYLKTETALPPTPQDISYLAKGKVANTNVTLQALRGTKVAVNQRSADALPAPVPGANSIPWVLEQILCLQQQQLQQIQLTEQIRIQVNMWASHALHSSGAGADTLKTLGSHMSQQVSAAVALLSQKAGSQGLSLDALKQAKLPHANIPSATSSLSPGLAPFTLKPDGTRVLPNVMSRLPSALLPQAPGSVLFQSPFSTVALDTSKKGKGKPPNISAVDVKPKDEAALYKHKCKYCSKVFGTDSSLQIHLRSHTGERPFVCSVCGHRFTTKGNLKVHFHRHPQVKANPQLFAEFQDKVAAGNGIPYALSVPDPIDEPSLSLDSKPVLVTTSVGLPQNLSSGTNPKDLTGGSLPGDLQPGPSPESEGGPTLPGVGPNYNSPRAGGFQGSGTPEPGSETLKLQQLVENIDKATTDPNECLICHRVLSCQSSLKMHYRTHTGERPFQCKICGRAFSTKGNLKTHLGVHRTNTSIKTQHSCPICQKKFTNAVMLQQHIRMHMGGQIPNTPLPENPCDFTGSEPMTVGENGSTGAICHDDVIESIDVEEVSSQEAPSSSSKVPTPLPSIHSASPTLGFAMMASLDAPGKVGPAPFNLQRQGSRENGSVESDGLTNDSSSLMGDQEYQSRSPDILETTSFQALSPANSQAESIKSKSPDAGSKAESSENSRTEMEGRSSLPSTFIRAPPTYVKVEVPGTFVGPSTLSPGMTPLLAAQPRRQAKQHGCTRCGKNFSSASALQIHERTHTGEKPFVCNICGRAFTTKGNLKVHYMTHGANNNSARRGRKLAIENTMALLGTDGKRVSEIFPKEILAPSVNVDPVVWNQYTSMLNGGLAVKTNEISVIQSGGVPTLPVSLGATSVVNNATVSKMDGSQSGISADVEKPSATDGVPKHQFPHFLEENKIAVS
Method: universal PBM
Form: double-stranded DNA, one strand shown
Sample: in vitro
Tested at: 600 nM
Setting: 8-mer, flanks averaged, mean of replicates
Direction: higher = stronger binding
Sequence | E-score
ATGTACAG | 0.0995
CAAGACGC | -0.0974
AAATGACC | 0.0218
TAACGGAA | 0.0691
GAGCCTGC | -0.219
CACGCTGA | -0.084
GGATTGAC | -0.0275
TCGTCACA | 0.0452
AGGACAAG | -0.0232
CGACCGAG | -0.339
ACCACCTA | -0.0741
GGCGCGGA | -0.383
CCGGCACA | -0.267
GGTATTAA | 0.179
CGCGTCCA | -0.216
AATGGAGA | 0.0115
GTAAGTAA | 0.0916
CAGCATAC | 0.0516
CGGAACAG | -0.223
AGGTGCGA | -0.169
CCATTGAG | 0.138
CTACGGCA | -0.187
CAGGGGGA | -0.265
GAACCGCC | -0.294
CAATGGGG | -0.191

Study 5
Target: Protein C-ets-1 (ETS1, Homo sapiens, UniProt P14921, residues 1-441, Y397A, full length assumed)
Method: protein-binding microarray
Form: double-stranded DNA, one strand shown
Sample: in vitro
Tested at: not given
Setting: k-mer, scored over probes, only values ≥0.25
Direction: higher = stronger binding
Target sequence (chain): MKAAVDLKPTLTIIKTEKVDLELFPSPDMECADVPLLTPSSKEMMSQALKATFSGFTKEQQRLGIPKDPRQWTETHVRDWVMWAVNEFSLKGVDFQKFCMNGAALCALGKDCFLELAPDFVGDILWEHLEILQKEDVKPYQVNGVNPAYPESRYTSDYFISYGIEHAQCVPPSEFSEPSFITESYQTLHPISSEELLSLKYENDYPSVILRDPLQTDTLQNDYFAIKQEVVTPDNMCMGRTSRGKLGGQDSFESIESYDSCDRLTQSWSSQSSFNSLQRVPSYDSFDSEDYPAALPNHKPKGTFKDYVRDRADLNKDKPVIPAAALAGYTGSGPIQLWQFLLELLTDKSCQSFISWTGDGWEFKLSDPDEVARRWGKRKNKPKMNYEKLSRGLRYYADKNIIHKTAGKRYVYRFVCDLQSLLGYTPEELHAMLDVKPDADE
Sequence | E-score
ATCCGCCA | 0.277
AAACACAA | 0.297
ACCCGACA | 0.259
CTGTGACA | 0.301
CCGACATA | 0.263
CGTGTCGC | 0.315
GCGTTTCC | 0.262
ATATTGCC | 0.263
AACGACAG | 0.259
CGAATCGA | 0.339
CGTTGATA | 0.27
AATCGACA | 0.313
TGTTGTAA | 0.309
GGCAAAAA | 0.287
ATATCCGC | 0.299
CAATTTCC | 0.323
CGTTGACA | 0.292
CGGATTGC | 0.297
AACGGATA | 0.267
CGGCAACA | 0.272
CAACATCC | 0.319
ACCGGATA | 0.264
ATGTTGTC | 0.256
TGCCGCAA | 0.276
GTTGACAA | 0.429

Study 6
Target: RNA binding protein fox-1 homolog 2, RRM domain, GST-SBP tag (RBFOX2, Homo sapiens, UniProt O43251-10, residues 100-194)
Method: RNA Bind-n-Seq
Form: RNA
Sample: in vitro
Tested at: 365 nM
Setting: natural RNA segment, single round, ends assumed
Relative to: no-protein control
Direction: higher = stronger binding
All sequences stand within: GGGAGUUCUACAGUCCGACGAUC … UGGAAUUCUCGGGUGCCAA
Target sequence (chain): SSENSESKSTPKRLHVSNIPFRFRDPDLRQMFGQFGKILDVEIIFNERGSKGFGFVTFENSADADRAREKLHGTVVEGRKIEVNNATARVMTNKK
Sequence | RBNS enrichment (R)
AUAGAGCGUUUCCCCUCUUGCUAACUCCCCAUUUUCUCCGUGAGCUCUGACUCCUAUUUAUCAUAUACUCACUCUGACUCUGAGGAAGGCAGAGAGGUGCCACUUGGCCU | 0.243
AAACAAAAAAGGGACUUAUUUUGCAUUCUCAAUGGUGUUUUUAAGGGAAUUAGGCAGAACAGAUUUCUAGGUUGGGUAGGCCACUGCAUUCUCUUUUGUUUGCAAAUUGG | 1.35
AUCAUGUAUUGUGAUGUUUCAAUGUGAGACACAAAAACAAUGGCUUGAAACUUGUGUAUCAUAUGUGAUUUUGAAAUGAACACCUUGAAUAGCACUAAUUUUUAUUUGUG | 0.698
GAUCAUACAUAUUUUGAAGAACAGACUGACCAAAGCUCACCUGUUUUUUGUGUUAGGUGCUUUGGCUGAACUUGAUUCCAGCCCCCUUUUCCCUUUGGUGUUGUGUAUGU | 0.695
GCUUUUCAGCUGACAUACAGAGCACUAAAUACUUUACGGCAAAUCCAUAGGUCUGAAUCUCUUAAGAAUUCUCAGUCUCUCUGGGAUGUAGGGCGCAUUAUAAAUGCAUU | 0.386
AUGGCCCAGGCCAAGAGCUGUCAAAUGAAAAACUUUGUGCUGAAGCAGGUUUUUAGUAUGUAUAUCUUUUUGAUGGUAUGAAGAAUUUAUUUAGGCUUGACUGUUUUAAA | 2.03
UUUACCAAUAACCAUAUUCUGGCUUAUUCUCCUACCCUCUGCUUCCAUUCAAUCUUCCCCACUAGGGGUUAUCAUUGGCAAUGGACGAGCUGAAGAUUUUGGAGCCUAUC | 0.192
GUUUCUCUGUGCCCUAAGAGCACAUUGUUUAUUAGCCAGGGUGGAGCGUUUUCGACCUUAUUAAACCUCUUUUAGUGCUUCUAAGCAAGUCAGGUCUGUGGCUCUGAGGC | 0.413
UGUUGCCACCCUGUGCUGAGGCCUGAGGCCUCUUCCUCAGCUUUAUCUCCCUUUCCUUCACUCAAGGGCCAUUUCCCCAGUCCCUAUCUCCCCCAUCCCCUCCCGGCUUA | 0.814
GUACAUGACUAGCUCUCCCAGUGUCCAAGCGCGUGCCUUCCCCGAGCCACUGGGGCGCAGCAGCGCGCUGCCCCUCUGCCCCAGGGACACCGGGCGCGCAUAACCACCCC | 0.3
UAGUUUACUAAACUAGAAGUCCUCAUAGUUUAAAAUGGCCUCAGCAGGCCUAGUGUAUACAAACUGGUUGUAUGUAUCAUGCCGUGGAGCUAGGGGGAGGAGUCAUUGUG | 0.388
UUGUAUAUAGCCCAAUGCAUCUCUGGAACUCUGUCUAAACACCAGCCAUCUACUUGGAAUGGGCCCCAGGACUGUGGUAUUUGCCUGGGCCAGGAAAGGAUAAGAAAUCC | 0.968
